Measurements of several laboratories.
Compare with care: the assays were run in different laboratories. ± gives the spread as reported.

N=C(N)NCCC[C@@H]1NC(=O)[C@H](CCCCN)NC(=O)[C@@H](Cc2ccccc2)NC(=O)[C@H](CC(=O)O)NC(=O)CNC1=O  lung metastasis reduction (B16-F10, C57BL/6 mouse; intravenous (co-injected with cells), 2.4 µmol, 14 d; baseline: cells only): ~30%
Cn1cc(-c2cccc(CN3CCC4(CC3)COc3c4ccc4c3CN([C@H]3CCC(=O)NC3=O)C4=O)c2)cn1  tumour growth inhibition (Crbn I391V mice, MC-38 tumour; oral, 30 mg/kg once daily, day 22): 68%
CCN(Cc1ccccc1)C(=O)CCc1nc(CN2CCN(C(=O)Cc3ccc(OC)c(OC)c3)CC2)no1  action potential number (current clamp; L4-L6 DRG neurons, rat CCI model; 10 µM, together with: 500 pA current injection): 0.09 ± 0.05
CCC(NC(=O)C(CC(C)C)NC(=O)CCc1ccccc1)C(=O)C(=O)NCc1cc(F)cc(OC)c1 (stereo not shown)  cell death (TUNEL; mouse traumatic brain injury model (controlled cortical impact); intraperitoneal, 0.1 or 1.0 mg/kg): no effect
N=C(N)NCCC[C@H](NC(=O)[C@@H]1CCCN1C(=O)[C@@H]1CSSC[C@H](N)C(=O)N[C@@H](Cc2ccc(O)cc2)C(=O)N[C@@H](Cc2ccccc2)C(=O)N[C@@H](CCC(N)=O)C(=O)N[C@@H](CC(N)=O)C(=O)N1)C(=O)NCC(N)=O  peak mean arterial pressure change (male Sprague-Dawley rat, conscious; intra-arterial, 5 ng/kg; baseline: pre-injection baseline): ~15 mmHg
CC(C)C[C@@H]1NC(=O)[C@H](C(C)C)NC(=O)[C@H](CO)NC(=O)CNC(=O)CNC(=O)[C@H](CCCNC(=N)N)NC(=O)[C@@H]2CCCN2C(=O)[C@@H](NC(=O)CC[C@H](NC(=O)c2ccc(N(C)Cc3cnc4nc(N)nc(N)c4n3)cc2)C(=O)O)C(C)(C)SSC[C@@H](C(=O)O)NC(=O)CNC(=O)[C@H]([C@@H](C)O)NC(=O)[C@H](C(C)C)NC1=O  paw weight (rat adjuvant arthritis; iv, 1 mg/kg once daily day 0-14, day 14): 3.46 ± 0.085 g
CCCCCCCC/C=C\CCCCCCCCOP(O)(O)=S.N  survival increase (C57BL/6 mouse; subcutaneous, 1, 3 or 10 mg/kg single, day 30, dosed 30 min before irradiation, together with: 6.3 Gy total-body irradiation, LD90/30; baseline: vehicle): > 50%
CC[C@H](C)[C@H](NC(=O)[C@H](Cc1c[nH]c2ccccc12)NC(=O)[C@H](CCCNC(=N)N)NC(=O)[C@H](CCCCN)NC(=O)[C@H](CC(C)C)NC(=O)[C@H](CC(=O)O)NC(=O)[C@H](Cc1ccccc1)NC(=O)[C@H](C)NC(=O)[C@H](Cc1ccc(O)cc1)NC(=O)[C@H](CC(N)=O)NC(=O)[C@H](Cc1ccc(O)cc1)NC(=O)[C@H](CCCNC(=N)N)NC(=O)[C@H](Cc1ccc(O)cc1)NC(=O)[C@H](Cc1ccc(O)cc1)NC(=O)[C@@H](NC(=O)[C@H](CC(C)C)NC(=O)[C@H](C)NC(=O)[C@H](CC(N)=O)NC(=O)[C@H](Cc1ccc(O)cc1)NC(C)=O)[C@@H](C)CC)C(=O)N[C@@H](Cc1ccc(O)cc1)C(=O)N[C@@H](CC(C)C)C(N)=O  α4β7+ CCR9+ cells (refers to: HA-52 tetramer; antigen-experienced tetramer+ CD4 T cells, healthy adults, HLA-DRB1*0101; dose not given): 0%
O=C(N[C@@H](Cc1coc2ccccc12)B(O)O)[C@@H]1C[C@H]2CC[C@@H]1O2  median survival prolongation (mouse, scaffold MM1.S bone marrow model; oral, 10 mg/kg once daily): 110 days
CSCC[C@H](NC(=O)CNC(=O)[C@H](CC(=O)O)NC(=O)[C@@H](NC(=O)[C@@H](NC(=O)[C@@H](NC(=O)CNC(=O)[C@H](CCC(N)=O)NC(=O)[C@H](CCSC)NC(=O)[C@H](CC(=O)O)NC(=O)[C@H](C)NC(=O)[C@H](C)NC(=O)[C@@H](NC(=O)[C@H](CO)NC(=O)[C@@H](N)CC(C)C)[C@@H](C)O)C(C)C)C(C)C)[C@@H](C)O)C(=O)N[C@@H](C)C(=O)N[C@@H](CO)C(=O)NCC(=O)N[C@@H](CC(C)C)C(=O)N[C@@H](CC(=O)O)C(=O)N[C@@H](CCCCN)C(=O)N[C@@H](CC(=O)O)C(=O)N[C@@H](Cc1ccc(O)cc1)C(=O)N[C@@H](CC(C)C)C(=O)N[C@@H](CCCCN)C(=O)N1CCC[C@H]1C(=O)N[C@@H](CC(=O)O)C(=O)N[C@@H](CC(=O)O)C(=O)O  survival (patients with stable disease, p53-positive solid tumours; dose not given, deceased patients): 7 to 32 weeks

Some of these lines once more:
CCCCCCCC/C=C\CCCCCCCCOP(O)(O)=S.N  survival increase (C57BL/6 mouse; subcutaneous, 1, 3 or 10 mg/kg single, day 30, dosed 30 min before irradiation, together with: 6.3 Gy total-body irradiation, LD90/30; baseline: vehicle): > 50%
